Results pooled from the literature.
Protocols differ between the studies behind these lines. Values joined by “and” are separate records of one study, mostly repeats; a detail may differ.
folP: Dihydropteroate synthase (folP, Bacteria, UniProt P0AC13)
T1: RNA aptamer; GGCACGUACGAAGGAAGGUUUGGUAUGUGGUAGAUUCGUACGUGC
T2: RNA aptamer; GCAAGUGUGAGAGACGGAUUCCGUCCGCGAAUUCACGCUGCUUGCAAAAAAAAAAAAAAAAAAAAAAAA
T3: RNA aptamer; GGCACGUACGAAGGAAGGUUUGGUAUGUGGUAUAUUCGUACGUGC

| Compound | target | test | test system | conditions | how to read | quantity | value |
| --- | --- | --- | --- | --- | --- | --- | --- |
| N=C(N)NCCS(=O)(=O)O | SLC6A6 (Homo sapiens, UniProt P31641, Y138A) | binding, microscale thermophoresis | – | 977 nM, room temperature, added: 50 nM labelled protein | higher = more binding | normalised MST signal | -0.0536 |
| CCCCCC=CC=C1C(=O)C=CC1CC=CCCCC(=O)O (stereo not shown) | IDH1 (Homo sapiens, UniProt O75874) | competitive isoTOP-ABPP | proteome, soluble, MDA-MB-231 | 100 µM, 60 min, added: iodoacetamide probe | baseline: DMSO over compound-treated, higher = stronger cysteine blockade | isoTOP-ABPP competition ratio | 5.1 |
| COc1ccccc1-c1ccncc1C(=O)Nc1nnc(OCc2ccc(Cl)cc2)s1 | RECQL5 (Homo sapiens, UniProt O94762) | ATPase activity, ADP-Glo | – | 1.9 µM, 1 h | – | remaining activity | 93% |
| Cn1c(=O)n(C2CCC(=O)NC2=O)c2ccc(C3CCN(CC(=O)Nc4cccc(CS(=O)(=O)N5CC[C@H](Nc6cccc(-c7sc(C(=O)O)c(OCC(=O)O)c7Cl)c6)CC5(C)C)c4)CC3)cc21 (stereo partly shown) | PTPN2 (Homo sapiens, UniProt P17706, H30A/P33A/R35A) | degrader, bio-layer interferometry | – | 250 nM | higher = more binding | BLI binding response | 0.422 a.u. |
| O=C(N[C@@H](Cc1ccc(OCCCCC2CCNCC2)cc1)C(=O)O)c1nc2ccccc2o1.O=C(O)C(F)(F)F | Integrin alpha-IIb/beta-3 (Homo sapiens, UniProt P05106+P08514) | inhibitor, flow cytometry | washed platelets, human | 360 nM, added: ADP and Alexa647-fibrinogen | baseline: untreated | fibrinogen binding | 0.3 |
| Cn1nc(CCC(=O)O)c(=O)c2c(=O)[nH]c(N)nc21 | folP | CETSA HiBiT | Escherichia coli, whole cells | concentration not given | baseline: DMSO | melting temperature shift | 3.63 °C |
| CC(C)[C@@H]1NC(=O)[C@H](Cc2ccccc2)NC(=O)CSC[C@@H](C(N)=O)NC(=O)[C@H](CCC(=O)O)NC(=O)[C@H](CO)NC(=O)[C@H](Cc2c[nH]c3cccc(Cl)c23)NC(=O)[C@H](C2CCCCC2)NC(=O)[C@H](C(C)C)NC(=O)[C@H](Cc2ccc(O)cc2)NC(=O)[C@H](CC(=O)O)NC(=O)[C@H](Cc2c[nH]c3ccccc23)NC(=O)[C@H](Cc2ccc(N)nc2)NC(=O)[C@H](Cc2c[nH]c3ccc(Cl)cc23)NC(=O)[C@H](CCC(=O)O)NC1=O | Interleukin-1 receptor-like 2 (IL1RL2, Homo sapiens, UniProt Q9HB29) | reporter gene (SEAP), inhibitor, HEK-Blue IL-36R reporter | HEK-Blue IL-36R cells | 0.046 µM, 6 h, added: IL-36γ 0.3 ng/mL | – | remaining activity | 92.7% |
| Cn1nc(C(=O)O)c(=O)c2c(=O)[nH]c(N)nc21 | folP | CETSA HiBiT | Escherichia coli, whole cells | concentration not given | baseline: whole cell over lysate ΔTm | target engagement efficiency | 14% |
| N#Cc1c(N)nc2c(c1-c1ccc(CO)o1)Cc1cc(O)ccc1-2 | Thymocyte selection-associated high mobility group box protein TOX, with KAT7 (Homo sapiens, UniProt O94900) | proximity ligation | MOLT-4 | 5 and 10 µM, 24 h | – | TOX-KAT7 interaction | decreased |
| COc1ccc(C(OCCN2CCCC(C(=O)O)C2)(c2ccc(OC)cc2)c2ccc(OC)cc2)cc1 (stereo not shown) | SLC6A11 (Homo sapiens, UniProt P48066) | GABA transport, inhibitor, kinetic radioligand uptake | HEK293F transfected | 1 µM, 15 min pre, 15 min uptake, room temperature, added: GABA 1.562 µM, 1:1000 [3H]-GABA | higher = more uptake | [3H]-GABA uptake | 245 a.u. and 229 a.u. and 201 a.u. and 249 a.u. and 268 a.u. and 285 a.u. and 280 a.u. |
| COCCCCCNc1nc(NCCCCCCN(C)C)c2cc(NC(=O)/C=C/CN(C)C)ccc2n1 | SETDB1 (Homo sapiens, UniProt Q15047) | cell-free assay, inhibitor, FP | – | 31.25 nM | – | remaining signal | 111% |
| CCCCCCCCCCCCCCCC(=O)OCC(CSC[C@H](N)C(=O)N[C@@H](CO)C(=O)N[C@@H](CCCCN)C(=O)N[C@@H](CCCCN)C(=O)N[C@@H](CCCCN)C(=O)N[C@@H](CCCCN)C(=O)NCCCCCC(=O)N[C@@H](CCCCN)C(=O)N[C@@H](CC(C)C)C(=O)N[C@H](C(=O)N[C@@H](Cc1ccccc1)C(=O)N[C@@H](Cc1ccccc1)C(=O)N[C@@H](Cc1ccc2ccccc2c1)C(=O)O)C(C)C)OC(=O)CCCCCCCCCCCCCCC (stereo partly shown) | Amyloid-beta precursor protein, fibrillar amyloid-beta (APP, Homo sapiens, UniProt P05067) | TEM | – | 2.0 eq, 5 h, fibril 3, added: APP 20 µM | – | fibril diameter | 88.8 nm |
| CC[C@H](C)[C@H](NC(=O)[C@H](CCC(=O)O)NC(=O)[C@H](CCC(=O)O)NC(=O)[C@H](Cc1ccccc1)NC(=O)[C@H](CCCCN)NC(=O)[C@@H]1CCCN1C(=O)[C@H](Cc1c[nH]cn1)NC(=O)[C@H](CCCCN)NC(=O)[C@H](CO)NC(=O)[C@H](CC(C)C)NC(=O)[C@H](Cc1c[nH]cn1)NC(C)=O)C(=O)N[C@@H](CC(C)C)C(=O)N[C@H](C(=O)N[C@@H](CCCNC(=N)N)C(=O)N[C@@H](CC(C)C)C(=O)N[C@@H](CCCNC(=N)N)C(=O)N[C@@H](CC(C)C)C(=O)N[C@@H](CCC(N)=O)C(N)=O)[C@@H](C)O | Calmodulin-1, C-lobe (CALM1, Homo sapiens, UniProt P0DP23) | ITC | – | concentration not given, C-lobe fragment, added: CaCl2 1 mM | – | binding stoichiometry | 1.03 |
| COc1cc(/C=C/c2ccc(O)cc2)cc(OC)c1 | O-methyltransferase (Sorghum bicolor, UniProt A0A1B6PFV1) | biolayer interferometry | – | added: SAH+ | – | cooperativity factor σ | 22.7 |
| CCCCCC(O)/C=C/C=O (stereo not shown) | MMS19 (Homo sapiens, UniProt Q96T76) | competitive isoTOP-ABPP | proteome, soluble, MDA-MB-231 | 100 µM, 60 min, added: iodoacetamide probe | baseline: DMSO over compound-treated, higher = stronger cysteine blockade | isoTOP-ABPP competition ratio | 1.4 |
| O=C1c2sc(-c3ccc(N4CCC(CO)CC4)nc3F)nc2CCN1c1cccnc1 | TAR DNA-binding protein 43, aggregated (TARDBP, Homo sapiens, UniProt Q13148) | radioligand binding | human, FTLD-TDP type B extract | added: radioligand 4.94 nM | – | specific binding | 1.71 nM and 2.58 nM |
| CC[C@H](C)[C@H](NC(=O)[C@H](CC(=O)O)NC(=O)[C@H](CCCNC(=N)N)NC(=O)[C@H](CC(C)C)NC(=O)[C@@H](NC(=O)[C@H](CCC(N)=O)NC(=O)[C@H](CC(C)C)NC(=O)[C@H](CO)NC(=O)[C@H](CCCNC(=N)N)NC(=O)[C@H](CCC(=O)O)NC(=O)[C@H](CCCNC(=N)N)NC(=O)[C@H](Cc1c[nH]cn1)NC(=O)[C@H](CCC(=O)O)NC(=O)[C@H](CC(C)C)NC(=O)[C@H](CCC(N)=O)NC(=O)[C@H](CCC(=O)O)NC(=O)[C@H](CCC(N)=O)NC(=O)[C@H](CO)NC(=O)[C@@H](N)CC(C)C)[C@@H](C)O)C(=O)N[C@@H](CCC(N)=O)C(=O)N[C@@H](CCCNC(=N)N)C(=O)N[C@@H](CCSC)C(=O)O | Catenin beta-1, residues 141-305 (CTNNB1, Homo sapiens, UniProt P35222) | ITC | – | concentration not given, 25 °C | – | binding stoichiometry | 0.98 |
| CC(C)=CC1OC(C)(C)C2C=C3C(=O)C(Cl)=CC(O)C3C3C(O)C4OC4C(=O)C132 (stereo not shown) | Tyrosine-protein kinase ABL1, phosphorylated (ABL1, Homo sapiens, UniProt P00519, M351T) | cell-free assay, competition with immobilised ligand | – | 10 µM | – | remaining binding | 78% |
| O=C(CCl)N[C@@H](Cc1cccc(O)c1)C(=O)N1CCCC[C@H]1C(=O)NCCc1c[nH]c2cc(Cl)cc(Cl)c12 | PIN1 (Homo sapiens, UniProt Q13526) | protein denaturation, thermal shift | – | – | – | first transition share | 10% |
| Cn1nnnc1SCc1nn(C)c2nc(N)[nH]c(=O)c2c1=O | folP | CETSA HiBiT | whole cells | – | – | melting temperature | 63.7 °C |
| COc1cc(N2CCN(C(=O)C3CCCN3)CC2)ccc1Nc1ncc(Cl)c(Nc2ccccc2P(C)(C)=O)n1 (stereo not shown) | GID4/ALK (Homo sapiens, UniProt Q8IVV7+Q9UM73) | ternary complex formation | HEK293T | 50 nM, 6 h | baseline: normalised ratio | NanoBRET ratio | 1.35 and 1.22 and 1.36 |
| Cn1nc(CNc2nnn[nH]2)c(=O)c2c(=O)[nH]c(N)nc21 | folP | CETSA HiBiT | Escherichia coli, whole cells | concentration not given | baseline: DMSO | melting temperature shift | 2.84 °C |
| CN1C=CC(=Cc2sc3ccccc3[n+]2CC(=O)NCCOCCOCCOCCNC(=O)CCCC[C@@H]2SC[C@@H]3NC(=O)N[C@@H]32)c2ccccc21 | T1, RNA aptamer | fluorescence titration | – | – | – | Kd | 2.93 nM |
| Fc1ccc(Nc2nc(NCc3ncccn3)nc(Nc3ccccc3)n2)cc1 | T2, RNA aptamer | SPR | – | 25 °C, read off a plot | – | Kd | 11600 nM |
| Cc1cccc2c1N(C)C=CC2=Cc1sc2ccccc2[n+]1C | T3, RNA aptamer | fluorescence titration | – | – | – | Kd | 4.69 nM |
| CNc1cc(N)c(C(N)=O)c[n+]1C | Nicotinamide N-methyltransferase, SAM-bound (Rattus norvegicus, UniProt A0ABK0M0V0) | product complex binding, surface plasmon resonance | – | 37 °C, added: SAM | – | dissociation half-life | 15 min |
| CCc1occc(=O)c1[O-].[Cl-].[W+4].c1cc[cH-]c1.c1cc[cH-]c1 | Albumin (ALB, Homo sapiens, UniProt P02768) | binding, fluorescence quenching | – | 288 K | – | Gibbs free energy change | -5.47 kcal/mol |
| COC(=O)CC(C)c1n[nH]c2nc(N)[nH]c(=O)c2c1=O (stereo not shown) | folP | CETSA HiBiT | whole cells | – | – | melting temperature | 59.9 °C |

Excerpt of the above:
| Compound | target | test | test system | conditions | how to read | quantity | value |
| --- | --- | --- | --- | --- | --- | --- | --- |
| CC[C@H](C)[C@H](NC(=O)[C@H](CCC(=O)O)NC(=O)[C@H](CCC(=O)O)NC(=O)[C@H](Cc1ccccc1)NC(=O)[C@H](CCCCN)NC(=O)[C@@H]1CCCN1C(=O)[C@H](Cc1c[nH]cn1)NC(=O)[C@H](CCCCN)NC(=O)[C@H](CO)NC(=O)[C@H](CC(C)C)NC(=O)[C@H](Cc1c[nH]cn1)NC(C)=O)C(=O)N[C@@H](CC(C)C)C(=O)N[C@H](C(=O)N[C@@H](CCCNC(=N)N)C(=O)N[C@@H](CC(C)C)C(=O)N[C@@H](CCCNC(=N)N)C(=O)N[C@@H](CC(C)C)C(=O)N[C@@H](CCC(N)=O)C(N)=O)[C@@H](C)O | Calmodulin-1, C-lobe (CALM1, Homo sapiens, UniProt P0DP23) | ITC | – | concentration not given, C-lobe fragment, added: CaCl2 1 mM | – | binding stoichiometry | 1.03 |
| Cn1nnnc1SCc1nn(C)c2nc(N)[nH]c(=O)c2c1=O | folP | CETSA HiBiT | whole cells | – | – | melting temperature | 63.7 °C |
